Experimental data gathered from unrelated publications.
Lines come from different studies, so protocols differ. Several values in a cell are separate wells, animals, samples, runs or records. Numbers after ± are the reported error.

COc1cnc2cccc(N3CCc4c(cc(Cn5ccnc5C)cc4-c4cn(C)nc4C(F)(F)F)C3=O)c2c1  EC50 (SNU-886; cell growth, inhibitor; 120 h): 12.5 µM
O=C1CCc2c(ccc3ccccc23)O1  viability (HBL-1; 0.1 µM, 120 h): 113%
CC(C)NCC(O)c1ccc(O)c(O)c1 (centres unmarked)  sarcomere length (mouse ventricular cardiomyocytes; dose not given, 0.395 s): 1.8 µm
O=C(O)c1ccc(O)c2ncccc12  viability (HBL-1; 1 µM, 120 h): 103%
CC1(C)CN(CCCCC(=O)N[C@@H](CCC(=O)O)C(=O)N[C@@H](CCC(=O)O)C(=O)N[C@H](CCCCNC(=O)CCCCCCC(=O)NCCCC[C@H](NC(=O)N[C@@H](CCC(=O)O)C(=O)O)C(=O)O)C(=O)O)CC[N]2CC(C)(C)[S][Tc]2(=[O])[S]1 (some centres unmarked) [technetium-99m labelled]  internalized activity (LNCaP; 25 nM, 1 h, 4 °C): 0.52 ± 0.32 %AD/mg protein
O=c1ncn2nc(Sc3ccc(F)cc3F)ccc2c1-c1c(Cl)cccc1Cl  beat rate (iCell cardiomyocytes hiPSC-derived; impedance; concentration not given, 2 h; relative to: vehicle): 105%
CC(=O)Nc1cccc(-n2c(=O)n(C3CC3)c(=O)c3c(Nc4ccc(I)cc4F)n(C)c(=O)c(C)c32)c1  fractional effect (NCI-H2087 (BRAF L597V); 6.25 nM; relative to: DMSO): 0.477
COC(=O)[C@]12CCC(C)(C)C[C@H]1[C@H]1C(=O)C=C3[C@@]4(C)C=C(C#N)C(=O)C(C)(C)[C@@H]4CC[C@@]3(C)[C@]1(C)CC2  point of departure (HepG2; high content imaging, refers to: nuclear size; 24 h, expected PoD over plates): 2.97 µM
Cc1ccc(NC(=O)CCCCCC(=O)Nc2ccccc2N)cc1  viability (HBL-1; 0.5 µM, 120 h): 119%
COC(=O)Nc1nc2ccc(C(=O)c3ccccc3)cc2[nH]1  inhibition (BT-12; cell viability, MTT; 10 µM, 72 h): 86%
C[C@]12O[C@H](C[C@]1(O)CO)n1c3ccccc3c3c4c(c5c6ccccc6n2c5c31)CNC4=O  viability (HBL-1; 1 µM, 120 h): 2.76%
COc1cc2ncnc(Nc3ccc(O)c(Br)c3)c2cc1OC  inhibition (HeLa expressing Ub(G76V)-GFP; Ub(G76V)-GFP degradation, inhibitor, cycloheximide chase; 12 µM): 27%
COc1ccc(NC(=S)N/N=C/c2cccc3cc4ccccc4nc23)cc1  S phase cells (HeLa; PI flow cytometry; IC25, 48 h): 26 ± 0.4%
N#C/C(=C\c1ccc(-c2cc(Cl)ccc2Cl)o1)C(=O)Nc1cccc2ncccc12  viability (HBL-1; 0.5 µM, 120 h): 113%
O=C1C(Cl)=C(N2C(=O)CCC2=O)C(=O)c2ccccc21  inhibition (HeLa expressing Ub(G76V)-GFP; Ub(G76V)-GFP degradation, cycloheximide chase; 12 µM): 7%
NC(=O)c1ccc(I)c([N+](=O)[O-])c1  viability (HBL-1; 1 µM, 120 h): 105%
CCc1cnn2c(NCc3ccc[n+]([O-])c3)cc(N3CCCC[C@H]3CCO)nc12  inhibition (BT-12; cell viability, MTT; 10 µM, 72 h): 94.8%
C[C@H]1[C@@H](O)O[C@@H]2O[C@@]3(C)CC[C@H]4[C@H](C)CC[C@@H]1[C@@]24OO3  necrotic cells (THP-1; annexin V/PI flow cytometry, refers to: annexin V-/PI+; 0.4 µM, 24 h): 0.1%
Cc1cc(OCc2nnc(SC3CCCC3)n2-c2cccnc2)ccc1-c1ccc(S(C)(=O)=O)cc1  inhibition (BT-12; cell viability, MTT; 10 µM, 72 h): 94.8%
CCOC(=O)CCNc1cc(N2CCc3ccccc3CC2)nc(-c2cccnc2)n1  viability (HBL-1; 0.5 µM, 120 h): 108%
Cc1cccc(-c2[nH]c(CNc3ccccc3F)nc2-c2ccc3ncnn3c2)n1  viability (MM1.S; XTT; 1.8 µM): 24% and 29% and 16%
COc1ccc(-c2cnc3c(-c4ccsc4)cnn3c2)cc1  inhibition (HeLa expressing Ub(G76V)-GFP; Ub(G76V)-GFP degradation, cycloheximide chase; 12 µM): -3%
Cn1cc(-c2ccc(-c3cncc(Cl)c3N3CCC4(CCNC4=O)CC3)cc2)cn1  log2 fold change (COLO 205; gene expression, microarray, refers to: ATF3 mRNA; concentration not given, 6 h; relative to: untreated cells): 2.11

Some of these lines once more:
CCOC(=O)CCNc1cc(N2CCc3ccccc3CC2)nc(-c2cccnc2)n1  viability (HBL-1; 0.5 µM, 120 h): 108%
Cc1ccc(NC(=O)CCCCCC(=O)Nc2ccccc2N)cc1  viability (HBL-1; 0.5 µM, 120 h): 119%
